Published values collected from several papers.
Lines come from different studies, so protocols differ. Numbers after ± are the reported error.

CC(C)=CCc1c(OCC2OC2(C)C)ccc2ccc(=O)oc12 (stereo not shown)  combination index (COLO 320 (ABCB1-overexpressing, multidrug-resistant); cell growth; 150 µM starting, CI at ED50, together with: doxorubicin, ratio 17.42:1): 1.17
COc1ccc(/C=N\NC(=O)[C@]2(C)C3CC[C@]4(C)C(C(=O)C=C5C6[C@@H](C)[C@H](C)CC[C@]6(C)CC[C@]54C)[C@@]3(C)CC[C@H]2OC(C)=O)cc1O (stereo partly shown)  inhibition (RAW264.7; NO release, inhibitor, Griess; 10 µM, 24 h, LPS-stimulated): 85.2%
CC(=O)OC[C@H]1O[C@@H](Sc2sc(C(=O)c3ccc(Br)cc3)c(N)c2-c2nc3ccccc3s2)[C@H](OC(C)=O)[C@@H](OC(C)=O)[C@@H]1OC(C)=O  growth (RXF 393; SRB; 10 µM, 48 h; reference: untreated): 116%
CC/C=C\C/C=C\C/C=C\C/C=C\C/C=C\C/C=C\CCC(=O)Nc1ccn(C2OC(CO)C(O)C2(F)F)c(=O)n1 (stereo not shown)  TGI (ACHN; NCI60 screen): 10.1 µM
CS(=O)(=O)c1ccc(-c2nnc(/C=C/c3nnc(-c4ccc(C#N)cc4)o3)n2-c2ccccc2Cl)nc1  mRNA level (COLO 320DM; qRT-PCR, measured: AXIN2 and MYC; concentration not given, 48 h): decreased
CCOC(=O)c1csc2nc(-c3cccc(NC(=O)c4cc5cc(NC(=O)c6ccco6)ccc5n4Cc4ccc(C(F)(F)F)cc4)c3)cn12  intracellular GSH level (RAW264.7; 10 µM, together with: LPS; reference: control): decreased
CN1CCN(c2ccc3nc(-c4cccc(N5CCc6ccccc6C5)n4)[nH]c3c2)CC1  EC50 (HT-22; protection from ferroptosis, CCK-8 viability; 24 h, together with: 1 µM erastin): 0.78 µM
COc1cc(CNC(=O)C[C@H](C)CCC=C(C)C)ccc1OCc1cn(-c2cccc(Cl)c2)nn1  growth (LOX IMVI; SRB; 10 µM, 48 h): 75.1%
O=C(NCCc1cccc(F)c1)[C@@H]1C[C@@H](Sc2nc3ccccc3[nH]2)CN1Cc1cccc(Cl)c1  effective concentration (MGC-803; cell invasion, inhibitor): 2 to 16 µM
CC[C@H](C(=O)N1CCCC[C@H]1C(=O)O[C@H](CCc1ccc(OC)c(OC)c1)c1cccc(OCC(=O)NCCOCCOCCN(C)C/C=C/C(=O)Nc2cc3c(Nc4ccc(F)c(Cl)c4)ncnc3cc2OC)c1)c1cc(OC)c(OC)c(OC)c1  decrease in viability (NCI-H1975 expressing FKBP12F36V-PTPN2; CellTiter-Glo; concentration not given, 6 days): 99.6%
COc1cc(CNC(=O)C[C@H](C)CCC=C(C)C)ccc1O  growth (LOX IMVI; SRB; 10 µM, 48 h): 93%
Cc1ccc(CN2C(=O)/C(=N\c3ccc(Cl)cc3Br)c3ccccc32)cc1  S-phase cells (B16; 0.8 µM, 48 h): 57.6%
CC(=O)N[C@H](C(=O)N[C@H](C(=O)N[C@@H](CCCNC(=N)N)C(=O)N1Cc2ccccc2C[C@H]1C(=O)N[C@@H](Cc1ccccc1)C(N)=O)C1CCCCC1)C(C)C  cytokine level (MBP-specific BC-3 T cells; Bio-Plex multiplex, measured: IL-8; 200 µg/mL, 24 h, together with: MBP87-99 antigen): 14800 ± 7190 pg/mL
CC(C)Cc1ccc(C(C)C(=O)N/N=C/c2ccc(OCC(=O)N/N=C/c3c(O)ccc4ccccc34)cc2)cc1 (stereo not shown)  viability (U87 MG; MTT; 150 µM, 48 h): 90.2%
COc1cc(CNC(=O)C[C@H](C)CCC=C(C)C)ccc1OCc1cn(-c2ccc([N+](=O)[O-])cc2)nn1  growth percent (EKVX; SRB; 10 µM, 48 h): 75.2%
COc1cc(/C=C/C(=O)/C=C/c2ccc(O)c(OC)c2)ccc1O  S-phase cells (CEM-T; propidium iodide flow cytometry; 1 µM, 24 h; reference: untreated): 1.4 fold
C=CC(=O)Nc1cccc(Cn2ncc3cnc(Nc4cnn(CCOC)c4)nc32)c1  STAT phosphorylation (human PBMC or CD34+ cells; Western blot; concentration not given, together with: non-JAK3 cytokines): no inhibition
CC(=O)OC[C@H]1O[C@@H](Sc2sc(C(=O)c3ccc(C)cc3)c(N)c2-c2nc3ccccc3s2)[C@H](OC(C)=O)[C@@H](OC(C)=O)[C@@H]1OC(C)=O  growth (EKVX; SRB; 10 µM, 48 h; reference: untreated): 75%
CC(C)C[C@H](NC(=O)[C@H](CC(C)C)NC(=O)[C@@H](N)C(C)C)C(=O)N[C@@H](CO)C(=O)N1CCC[C@H]1C(=O)N[C@@H](CC(C)C)C(=O)N[C@@H](CO)C(=O)N[C@@H](CCCNC(=N)N)C(=O)N[C@H](C(=O)O)C(C)C  peptide-MHC complexes per cell (SK-N-MC, HLA-A*02:01; quantitative immunopeptidomics; together with: IFN-γ): 43
COc1ccc2c(c1)/C(=N\Nc1nnc3n1N=C(c1ccccc1)CS3)C(=O)N2  inhibition (OVCAR-5; cell growth or viability, SRB; 10 µM): 18%
CC(C)Cc1ccc(C(C)C(=O)N/N=C/c2ccc(OCC(=O)N/N=C/c3ccc([N+](=O)[O-])cc3)cc2)cc1 (stereo not shown)  viability (U87 MG; MTT; 40 µM, 48 h): 88%
CC1=CC(C)(C)N=C(Nc2nc(C)c3cc(C)cc(C)c3n2)N1  IFN-γ increase (PBMC; ELISA; 10 µM, 48 h; reference: untreated): 160%
CO[C@H]1N(OC)c2ccccc2[C@@]12CN=C(Nc1cc(C(F)(F)F)cc(C(F)(F)F)c1)S2 (relative stereo)  sub-G1 cells (HCT-116; PI flow cytometry; concentration not given, 24 h; reference: untreated): 15.1 fold
COc1cc(CNC(=O)C[C@H](C)CCC=C(C)C)ccc1OCc1cn(-c2ccccc2)nn1  growth percent (EKVX; SRB; 10 µM, 48 h): 74.3%
CCC[C@H]1CC[C@H](c2ccc(NC(=S)NC[C@@H]3[C@@H](O)[C@@H](O)[C@H]4[C@H](O)CCCN43)cc2)CC1  cell invasion (Huh-7; Transwell; concentration not given): decreased
Nc1nc2cc(CC[C@H]3C[C@@H](n4ccc5c(N)ncnc54)[C@H](O)[C@@H]3O)ccc2cc1Br  protein level (NCI-H1048; inhibitor, immunoblot, measured: SmD1/3 dimethylarginine; 0.03 and 0.3 µM, 72 h): decreased
O=C(/C=C(O)/C=C/c1cccs1)/C=C/c1cccs1  intracellular ROS (Caco-2; DCFH-DA, SRB-normalized; 1 µM; reference: untreated cells): 134 ± 12.4%
C=C(C)[C@@H]1CC[C@]2(C(=O)OCO/N=[N+](\[O-])N3CCCC3)CC[C@]3(C)[C@H](CC[C@@H]4[C@@]5(C)CC[C@H](OC(C)=O)C(C)(C)[C@@H]5CC[C@]43C)[C@@H]12  late apoptotic cells (B16-F10; Annexin V/PI flow cytometry; 0.25 µM, 36 h): 5.1%
COc1cc(N2CCN(C(=O)CN)CC2)ccc1Nc1ncc(Cl)c(Nc2ccccc2P(C)(C)=O)n1  EML4-ALK level (NCI-H3122 GID4 knockout; degrader; concentration not given, 24 h; reference: parental cells): no effect
COc1cc(CN2CCN(c3ccccc3F)CC2)c2cc3[n+](cc2c1O)CCc1cc2c(cc1-3)OCO2  therapeutic index (HeLa and MDCK; SRB; 48 h; reference: CC50 MDCK over IC50 HeLa): 21.5
O=Cc1c(O)ccc2ccccc12  log2 fold change (HUVEC; RNA sequencing, measured: MCM2; 75 µM, 24 h; reference: DMSO): -2.83
COc1cc(CNC(=O)C[C@H](C)CCC=C(C)C)ccc1OCc1cn(-c2ccc(F)cc2)nn1  growth percent (T47D breast cancer cells; SRB; 10 µM, 48 h): 67.9%
C[C@H](NC(=O)CNC(=O)[C@H](CCC(=O)O)NC(=O)[C@H](CCC(=O)O)NC(=O)[C@H](CC(=O)O)NC(=O)[C@@H]1CCCN1C(=O)[C@H](Cc1ccccc1)NC(=O)[C@H](CS)NC(=O)[C@H](Cc1ccc(O)cc1)NC(=O)CCCNC(=O)CNC(=O)CNC(=O)[C@@H](C)NC(=O)CN)C(=O)N[C@@H](CS)C(=O)N[C@@H](Cc1ccc(O)cc1)C(N)=O [technetium-99m labelled]  internalization (SK-BR-3; 1 h, 37 °C): 7.21 ± 0.09%
Cc1cc(Nc2ccc(NC(=O)c3ccc(NC(=O)c4ccncc4)cc3)cc2)nc(N)n1  reporter reactivation (KG-1 with methylated CMV-luciferase; luciferase reporter gene; 3.2 µM, 24 h; reference: untreated): 1.2 ± 0.1 fold
CC1(C)OC(=O)C[C@H](O)[C@]2(C)[C@H]3CC[C@@]4(C)[C@H](c5ccoc5)OC(=O)[C@H]5O[C@]54[C@]3(C)C(=O)C[C@@H]12  combination index (COLO 320 (ABCB1-overexpressing, multidrug-resistant); cell growth; 200 µM starting, CI at ED50, together with: doxorubicin, ratio 185.6:1): 0.66
COc1ccc(S(=O)(=O)N2CCc3ccccc3C2)cc1N1CCN(C(=O)c2ccc(F)cc2C(F)(F)F)CC1  TH-positive neuron count (mouse midbrain dopamine neurons; 3.5 µM, 5 days): 362 ± 23.9
CC(C)C(=O)Cc1c(OCC(O)C(C)(C)O)ccc2ccc(=O)oc12 (stereo not shown)  combination index (COLO 320 (ABCB1-overexpressing, multidrug-resistant); cell growth; 200 µM starting, CI at ED50, together with: doxorubicin, ratio 185.6:1): 0.78
CC(C)Cc1ccc(C(C)C(=O)N/N=C/c2ccc(OCC(=O)N/N=C/c3cccc(O)c3)cc2)cc1 (stereo not shown)  viability (U87 MG; MTT; 150 µM, 48 h): 94.8%
N[C@@H](CCC(=O)N[C@@H](CS[Se]Cc1ccc(-c2cc(C(F)(F)F)nn2-c2ccc(S(N)(=O)=O)cc2)cc1)C(=O)NCC(=O)O)C(=O)O  increase in apoptosis (UACC-903 and UACC-903; 15.5 µM, 24 h): ~200%
Ic1cccc2cnccc12  EC50 (axotomized mouse DRG neurons; NfL release, ELISA, measured: neurofilament light chain; culture supernatant): 1.9 µM
O=C1OCC2=C1C(c1cccc(Br)c1)C1=C(N2)C(=O)c2ccccc2C1=O (stereo not shown)  late apoptotic cells (SK-LU-1 cells; annexin V/PI; 0.16 µM, 24 h): 3.39%
CC(C)Cc1ccc(C(C)C(=O)NN=Cc2ccc(OCC(=O)NN=Cc3cccc([N+](=O)[O-])c3)cc2)cc1 (stereo not shown)  viability (U87 MG; MTT; 80 µM, 48 h): 70.4%
CC(Cc1ccc(Cl)cc1)=C(c1ccc(Cl)cc1)c1ccc(OCCN(C)C)cc1  GI50 (OVCAR-5; cell growth or viability): 4.79 µM
COc1cc(CNC(=O)C[C@H](C)CCC=C(C)C)ccc1OCc1cn(-c2ccccc2Cl)nn1  growth percent (T47D breast cancer cells; SRB; 10 µM, 48 h): 9.14%
C[N+]1(CC(=O)OC2CCCCCCCCCCC2)CCCCC1  ED70 (DU-145; cell viability, CellTiter Blue; 96 h): 11.3 µM
[Cl-].[Cl-].[Ru+2].c1ccc(-c2cccc(-c3ccccn3)n2)nc1.c1ccc2nc(-c3ccc4ccccc4n3)ccc2c1  lowest concentration inhibiting OCR (A549; oxygen consumption rate, Seahorse extracellular flux; 1 h, dark): 10 µM
CSc1ccc(/C=C2/C(C)=C(CC(=O)NCCN(C)C)c3cc(F)ccc32)cc1  EC50 (BJ; cytotoxicity): > 7.57 µM
COc1cc2c(OC3OCC(OC)C(OC)C3OC(=O)c3ccc(Br)cc3)c3c(c(-c4ccc5c(c4)OCO5)c2cc1OC)C(=O)OC3 (stereo not shown)  mRNA level (CAL-27; RT-qPCR, measured: fibronectin; concentration not given, 36 h): decreased
COc1cc(CNC(=O)C[C@H](C)CCC=C(C)C)ccc1OCc1cn(-c2ccc(Cl)c(Cl)c2)nn1  growth percent (T47D breast cancer cells; SRB; 10 µM, 48 h): 33.6%
COc1ccc(NC(=O)COc2ccc(/C=C/C(C)=N/O)cc2OC)cc1  IL-6 expressing cells (SH-SY5Y; flow cytometry; 5 µM, together with: amyloid beta 10 µM): 36.6%
COc1cc2c(C=C3C(=O)Nc4ccccc43)c[nH]c2cc1C  TGI (colon cancer subpanel of NCI-60; 48 h): 3.98 µM
COc1cc(CNC(=O)C[C@H](C)CCC=C(C)C)ccc1OCc1cn(-c2ccc(Cl)cc2Cl)nn1  growth percent (RXF 393; SRB; 10 µM, 48 h): 14.1%
C=CC(=O)N1C[C@H](C)N(c2nc(OC[C@@]34CCCN3C[C@H](F)C4)nc3c(F)c(-c4ccc(F)c5sc(N)c(C#N)c45)c(C(F)(F)F)cc23)C[C@H]1C  potency ratio (MEF expressing wild-type KRAS4b; pERK; reference: KRAS G12C over wild-type KRAS4b): 5 to 10
COC(=O)[C@H](CSSC(C)(C)[C@H](NC(=O)[C@H](CCC(=O)NC[C@H](O)[C@@H](O)[C@H](O)[C@H](O)CO)NC(=O)[C@H](CCC(=O)O)NC(=O)[C@H](CCC(=O)NC[C@H](O)[C@@H](O)[C@H](O)[C@H](O)CO)NC(=O)[C@H](CCC(=O)O)NC(=O)[C@H](CCC(=O)NC[C@H](O)[C@@H](O)[C@H](O)[C@H](O)CO)NC(=O)CC[C@H](NC(=O)c1ccc(NCc2cnc3nc(N)[nH]c(=O)c3n2)cc1)C(=O)O)C(=O)O)NC(=O)CC[C@H](NC(=O)c1ccc(NCc2cnc3nc(N)nc(N)c3n2)cc1)C(=O)O  cytokine release modulation (THP-1 FRβ, CD19-CAR T, NALM-6 triple co-culture; 10 µM, together with: folic acid, 100-fold excess): inhibited
CCOC(=O)CCCCC[C@@H]1NC(=O)[C@H]2CCCN2C(=O)[C@H](Cc2ccccc2)NC(=O)[C@H](Cc2ccccc2)NC1=O  H3K9 acetylation (iPSC-derived neural progenitor cells; western blot; 1 µM, 18 h; reference: vehicle): ~2.1 fold increase
